{"data": "Measured values of several laboratories", "note": "Parts stem from different laboratories: compare values within a part only.", "sequence of UniProt Q15208 (whole entry, looked up)": "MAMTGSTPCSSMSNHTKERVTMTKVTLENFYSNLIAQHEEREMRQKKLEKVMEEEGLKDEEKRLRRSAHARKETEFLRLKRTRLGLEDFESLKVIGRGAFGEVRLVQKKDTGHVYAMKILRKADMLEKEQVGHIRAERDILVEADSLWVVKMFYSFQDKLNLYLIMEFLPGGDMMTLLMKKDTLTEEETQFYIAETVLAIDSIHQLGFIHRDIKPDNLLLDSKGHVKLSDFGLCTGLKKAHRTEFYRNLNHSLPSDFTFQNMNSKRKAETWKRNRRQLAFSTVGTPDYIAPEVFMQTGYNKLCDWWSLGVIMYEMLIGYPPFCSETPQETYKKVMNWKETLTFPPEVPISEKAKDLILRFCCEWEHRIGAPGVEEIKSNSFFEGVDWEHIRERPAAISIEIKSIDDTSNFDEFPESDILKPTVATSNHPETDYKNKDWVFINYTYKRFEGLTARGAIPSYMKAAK", "sequence of UniProt Q96RG2 (whole entry, looked up)": "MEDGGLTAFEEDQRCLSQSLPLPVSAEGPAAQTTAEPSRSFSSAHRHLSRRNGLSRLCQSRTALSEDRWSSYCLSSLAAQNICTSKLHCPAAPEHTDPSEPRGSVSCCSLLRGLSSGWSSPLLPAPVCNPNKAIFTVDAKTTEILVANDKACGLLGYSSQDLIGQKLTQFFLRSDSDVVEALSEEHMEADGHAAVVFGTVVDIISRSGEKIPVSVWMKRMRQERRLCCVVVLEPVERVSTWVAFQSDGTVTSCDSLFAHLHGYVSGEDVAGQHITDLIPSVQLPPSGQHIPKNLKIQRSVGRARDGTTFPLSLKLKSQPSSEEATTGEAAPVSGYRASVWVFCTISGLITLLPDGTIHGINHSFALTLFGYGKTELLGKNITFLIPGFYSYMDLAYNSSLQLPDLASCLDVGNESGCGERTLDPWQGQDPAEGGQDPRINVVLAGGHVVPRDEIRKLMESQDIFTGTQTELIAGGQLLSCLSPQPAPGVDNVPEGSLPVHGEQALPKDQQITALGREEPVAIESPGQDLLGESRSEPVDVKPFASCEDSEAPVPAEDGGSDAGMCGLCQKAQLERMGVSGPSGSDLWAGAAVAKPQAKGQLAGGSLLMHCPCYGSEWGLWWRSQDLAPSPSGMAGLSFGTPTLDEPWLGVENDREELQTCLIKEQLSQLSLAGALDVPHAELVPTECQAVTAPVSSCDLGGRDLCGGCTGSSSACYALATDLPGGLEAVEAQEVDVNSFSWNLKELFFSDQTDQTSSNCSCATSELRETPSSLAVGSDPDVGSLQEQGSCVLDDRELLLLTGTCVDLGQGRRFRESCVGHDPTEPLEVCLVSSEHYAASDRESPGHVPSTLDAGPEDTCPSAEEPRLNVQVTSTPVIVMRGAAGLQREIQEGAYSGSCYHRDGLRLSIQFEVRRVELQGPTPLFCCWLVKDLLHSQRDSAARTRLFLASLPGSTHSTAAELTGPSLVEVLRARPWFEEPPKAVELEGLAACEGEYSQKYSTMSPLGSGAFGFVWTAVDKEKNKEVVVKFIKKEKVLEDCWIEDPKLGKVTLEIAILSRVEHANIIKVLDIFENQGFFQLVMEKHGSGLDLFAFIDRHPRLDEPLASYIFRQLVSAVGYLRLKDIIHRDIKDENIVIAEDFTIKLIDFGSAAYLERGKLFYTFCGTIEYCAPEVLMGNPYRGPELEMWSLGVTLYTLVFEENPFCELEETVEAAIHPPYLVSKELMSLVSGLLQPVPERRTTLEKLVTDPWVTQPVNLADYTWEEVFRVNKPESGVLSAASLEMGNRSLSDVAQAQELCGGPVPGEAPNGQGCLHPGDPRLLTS", "sequence of UniProt P54762 (whole entry, looked up)": "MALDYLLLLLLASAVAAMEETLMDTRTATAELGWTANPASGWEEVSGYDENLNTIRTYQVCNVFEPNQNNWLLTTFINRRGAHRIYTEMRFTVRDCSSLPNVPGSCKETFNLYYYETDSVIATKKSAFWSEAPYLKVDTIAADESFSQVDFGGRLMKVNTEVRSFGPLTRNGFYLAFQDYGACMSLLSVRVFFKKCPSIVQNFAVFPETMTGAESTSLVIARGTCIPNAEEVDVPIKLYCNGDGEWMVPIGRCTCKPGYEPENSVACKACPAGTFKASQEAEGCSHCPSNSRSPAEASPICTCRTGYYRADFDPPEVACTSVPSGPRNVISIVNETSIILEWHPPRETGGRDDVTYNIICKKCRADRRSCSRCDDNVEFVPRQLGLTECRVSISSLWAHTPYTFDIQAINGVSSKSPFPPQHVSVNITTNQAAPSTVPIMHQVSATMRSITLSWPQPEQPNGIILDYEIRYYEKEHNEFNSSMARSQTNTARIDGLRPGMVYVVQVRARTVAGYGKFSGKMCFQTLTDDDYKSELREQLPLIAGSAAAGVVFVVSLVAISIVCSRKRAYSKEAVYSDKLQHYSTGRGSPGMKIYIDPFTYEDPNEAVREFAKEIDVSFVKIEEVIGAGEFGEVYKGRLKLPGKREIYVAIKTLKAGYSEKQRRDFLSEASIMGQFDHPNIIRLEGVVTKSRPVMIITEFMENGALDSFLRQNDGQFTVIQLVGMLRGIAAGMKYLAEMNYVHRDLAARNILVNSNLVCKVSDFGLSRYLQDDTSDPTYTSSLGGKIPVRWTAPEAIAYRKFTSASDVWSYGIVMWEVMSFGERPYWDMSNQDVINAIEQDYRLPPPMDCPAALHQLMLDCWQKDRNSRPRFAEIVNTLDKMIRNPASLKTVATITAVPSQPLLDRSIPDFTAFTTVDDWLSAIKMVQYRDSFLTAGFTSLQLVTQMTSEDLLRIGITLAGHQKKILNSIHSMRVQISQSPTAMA", "sequence of UniProt P42679 (whole entry, looked up)": "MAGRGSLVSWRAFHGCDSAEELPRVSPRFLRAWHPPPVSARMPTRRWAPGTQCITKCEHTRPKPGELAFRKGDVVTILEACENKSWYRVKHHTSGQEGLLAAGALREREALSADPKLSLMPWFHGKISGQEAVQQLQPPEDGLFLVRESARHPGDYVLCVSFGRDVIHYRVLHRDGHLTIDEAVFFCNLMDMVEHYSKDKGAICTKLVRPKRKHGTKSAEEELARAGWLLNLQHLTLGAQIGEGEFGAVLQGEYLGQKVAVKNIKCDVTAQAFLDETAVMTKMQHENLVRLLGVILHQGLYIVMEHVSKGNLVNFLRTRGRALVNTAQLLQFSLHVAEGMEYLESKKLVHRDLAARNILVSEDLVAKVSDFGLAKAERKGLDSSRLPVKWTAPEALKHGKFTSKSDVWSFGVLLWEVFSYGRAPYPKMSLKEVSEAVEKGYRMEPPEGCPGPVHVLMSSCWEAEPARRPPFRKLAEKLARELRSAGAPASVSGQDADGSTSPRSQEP", "sequence of UniProt Q9Y616 (whole entry, looked up)": "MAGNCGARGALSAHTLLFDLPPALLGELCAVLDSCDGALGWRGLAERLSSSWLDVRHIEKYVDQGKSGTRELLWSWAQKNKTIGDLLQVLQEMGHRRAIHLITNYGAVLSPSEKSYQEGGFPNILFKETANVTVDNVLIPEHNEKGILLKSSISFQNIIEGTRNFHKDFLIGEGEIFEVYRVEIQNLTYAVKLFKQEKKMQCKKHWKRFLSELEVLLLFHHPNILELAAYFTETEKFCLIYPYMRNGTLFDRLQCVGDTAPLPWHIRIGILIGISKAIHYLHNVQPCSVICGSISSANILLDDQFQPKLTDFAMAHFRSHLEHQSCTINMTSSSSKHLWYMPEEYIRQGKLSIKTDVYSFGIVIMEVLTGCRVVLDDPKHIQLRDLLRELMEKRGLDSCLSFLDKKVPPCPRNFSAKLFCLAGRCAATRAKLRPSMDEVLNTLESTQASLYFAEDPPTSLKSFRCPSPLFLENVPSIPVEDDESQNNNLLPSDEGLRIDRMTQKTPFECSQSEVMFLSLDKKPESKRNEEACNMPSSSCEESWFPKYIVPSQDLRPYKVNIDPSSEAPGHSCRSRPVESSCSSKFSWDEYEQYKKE", "sequence of UniProt Q9UKI8 (whole entry, looked up)": "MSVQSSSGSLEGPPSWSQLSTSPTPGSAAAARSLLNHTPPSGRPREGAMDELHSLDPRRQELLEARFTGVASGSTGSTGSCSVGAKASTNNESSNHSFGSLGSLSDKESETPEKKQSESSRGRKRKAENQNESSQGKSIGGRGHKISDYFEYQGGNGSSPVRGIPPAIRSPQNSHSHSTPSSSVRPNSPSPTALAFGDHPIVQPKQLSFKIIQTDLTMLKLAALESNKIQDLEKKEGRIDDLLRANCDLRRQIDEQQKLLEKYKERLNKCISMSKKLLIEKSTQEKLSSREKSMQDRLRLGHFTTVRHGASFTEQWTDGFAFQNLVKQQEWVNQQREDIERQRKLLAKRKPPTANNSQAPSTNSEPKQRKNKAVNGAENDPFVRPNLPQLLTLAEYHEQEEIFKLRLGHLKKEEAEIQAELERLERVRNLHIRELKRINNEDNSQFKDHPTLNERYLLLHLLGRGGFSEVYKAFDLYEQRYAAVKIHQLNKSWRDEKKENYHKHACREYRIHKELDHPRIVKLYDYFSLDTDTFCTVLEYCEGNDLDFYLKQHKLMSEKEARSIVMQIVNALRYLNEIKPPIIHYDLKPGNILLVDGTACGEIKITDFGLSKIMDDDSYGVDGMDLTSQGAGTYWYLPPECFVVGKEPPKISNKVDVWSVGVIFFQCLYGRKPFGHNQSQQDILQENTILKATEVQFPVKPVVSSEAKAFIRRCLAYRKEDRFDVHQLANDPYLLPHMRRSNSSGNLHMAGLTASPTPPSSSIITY", "sequence of UniProt P51817 (whole entry, looked up)": "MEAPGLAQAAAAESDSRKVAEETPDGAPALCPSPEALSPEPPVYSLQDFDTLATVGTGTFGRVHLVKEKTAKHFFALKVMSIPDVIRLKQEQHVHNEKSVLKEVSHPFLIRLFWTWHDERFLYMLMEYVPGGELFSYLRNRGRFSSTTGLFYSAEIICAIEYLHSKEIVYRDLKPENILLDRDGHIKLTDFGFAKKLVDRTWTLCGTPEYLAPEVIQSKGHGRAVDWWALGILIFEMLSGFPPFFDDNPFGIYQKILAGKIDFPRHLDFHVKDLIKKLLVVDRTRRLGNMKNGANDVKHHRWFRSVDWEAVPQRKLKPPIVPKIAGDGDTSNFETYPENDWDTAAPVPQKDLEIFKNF"}
{"data": "Series 1", "SMILES": "COc1ccc2c(c1)O[C@H](c1ccc(OC)c(OC)c1)C[C@@H]2NC(=O)C1(c2ccc3c(c2)OC(F)(F)O3)CC1", "read-out": "cell-free assay", "method": "competition with immobilised ligand", "concentration": "1 µM"}
{"target": "MAPK12 (Homo sapiens, UniProt P53778)", "remaining binding": "98%"}
{"target": "CDK5 (Homo sapiens, UniProt Q00535)", "remaining binding": "100%"}
{"target": "IRAK3 (Homo sapiens, UniProt Q9Y616)", "remaining binding": "86%"}
{"target": "MAP3K3 (Homo sapiens, UniProt Q99759)", "remaining binding": "87%"}
{"target": "CSF1R (Homo sapiens, UniProt P07333)", "remaining binding": "100%"}
{"target": "SGK1 (Homo sapiens, UniProt O00141)", "remaining binding": "100%"}
{"target": "STK38 (Homo sapiens, UniProt Q15208)", "remaining binding": "100%"}
{"target": "IKBKB (Homo sapiens, UniProt O14920)", "remaining binding": "97%"}
{"target": "MAPK7 (Homo sapiens, UniProt Q13164)", "remaining binding": "100%"}
{"target": "CSNK2A1 (Homo sapiens, UniProt P68400)", "remaining binding": "100%"}
{"data": "Series 2", "Structure (SMILES)": "COc1cc2ncnc(N3CCN(C(=O)Nc4ccc(Oc5ccccc5)cc4)CC3)c2cc1OC", "read-out": "enzyme activity", "action": "inhibitor", "concentration": "0.5 µM", "reference": "control"}
{"target": "HIPK1 (Homo sapiens, UniProt Q86Z02)", "remaining activity [%]": 96.9}
{"target": "FLT4 (Homo sapiens, UniProt P35916)", "remaining activity [%]": 101}
{"target": "PKN1 (Homo sapiens, UniProt Q16512)", "remaining activity [%]": 103}
{"target": "Cyclin-dependent kinase 3, with cyclin E (CDK3, Homo sapiens, UniProt Q00526)", "remaining activity [%]": 82}
{"target": "TAOK3 (Homo sapiens, UniProt Q9H2K8)", "remaining activity [%]": 95.3}
{"target": "ITK (Homo sapiens, UniProt Q08881)", "remaining activity [%]": 88.1}
{"target": "NLK (Homo sapiens, UniProt Q9UBE8)", "remaining activity [%]": 99.9}
{"target": "NEK11 (Homo sapiens, UniProt Q8NG66)", "remaining activity [%]": 107}
{"target": "MATK (Homo sapiens, UniProt P42679)", "remaining activity [%]": 96.8}
{"target": "AKT1 (Homo sapiens, UniProt P31749)", "remaining activity [%]": 93.7}
{"target": "CDC42BPA (Homo sapiens, UniProt Q5VT25)", "remaining activity [%]": 95.4}
{"target": "ALK (Homo sapiens, UniProt Q9UM73)", "remaining activity [%]": 101}
{"target": "STK25 (Homo sapiens, UniProt O00506)", "remaining activity [%]": 100}
{"target": "MARK3 (Homo sapiens, UniProt P27448)", "remaining activity [%]": 80.4}
{"target": "PRKX (Homo sapiens, UniProt P51817)", "remaining activity [%]": 99.3}
{"target": "FER (Homo sapiens, UniProt P16591)", "remaining activity [%]": 99.8}
{"target": "PASK (Homo sapiens, UniProt Q96RG2)", "remaining activity [%]": 97.7}
{"target": "Insulin receptor (INSR, Homo sapiens, UniProt P06213)", "remaining activity [%]": 98.2}
{"target": "FYN (Homo sapiens, UniProt P06241)", "remaining activity [%]": 112}
{"target": "LIM domain kinase 1 (LIMK1, Homo sapiens, UniProt P53667)", "remaining activity [%]": 69.8}
{"target": "FGR (Homo sapiens, UniProt P09769)", "remaining activity [%]": 98.8}
{"data": "Series 3", "SMILES": "C=CC(=O)N1CCC[C@@H](n2nc(-c3ccc(Oc4ccccc4)cc3)c3c(N)ncnc32)C1", "read-out": "enzyme activity", "action": "inhibitor", "concentration": "1 µM"}
{"target": "STK38 (Homo sapiens, UniProt Q15208)", "inhibition [%]": 33}
{"target": "SBK3 (Homo sapiens, UniProt P0C264)", "inhibition [%]": 0}
{"target": "TLK1 (Homo sapiens, UniProt Q9UKI8)", "inhibition [%]": 21}
{"target": "EPHB1 (Homo sapiens, UniProt P54762)", "inhibition [%]": 4}
{"target": "MAP2K6 (Homo sapiens, UniProt P52564)", "inhibition [%]": 0}
{"data": "Series 4", "cell line": "A-375", "concentration": "100 µM", "time": "18 h"}
{"Structure (SMILES)": "CC(=O)OCC(=O)[C@H]1CC[C@H]2[C@@H]3CCC4=CC(=O)CC[C@]4(C)[C@H]3CC[C@]12C", "viability": "80.5%"}
{"Structure (SMILES)": "CO/N=C(\\C(=O)N[C@@H]1C(=O)N2C(C(=O)O)=C(CSc3nnnn3C)CS[C@H]12)c1csc(N)n1", "viability": "110%"}
{"Structure (SMILES)": "CN1CCC(=C2c3ccccc3CC(=O)c3sccc32)CC1", "viability": "76.1%"}
{"Structure (SMILES)": "CCOc1ccc(Cc2nccc3cc(OCC)c(OCC)cc23)cc1OCC", "viability": "61.6%"}
{"Structure (SMILES)": "Nc1ncnc2c1ncn2[C@@H]1O[C@H](CO)[C@@H](O)[C@H]1O", "viability": "98%"}
{"Structure (SMILES)": "COc1ccc([C@@H]2CC(=O)c3c(O)cc(O[C@@H]4O[C@H](CO[C@@H]5O[C@@H](C)[C@H](O)[C@@H](O)[C@H]5O)[C@@H](O)[C@H](O)[C@H]4O)cc3O2)cc1O", "viability": "90%"}
{"Structure (SMILES)": "NNC(=O)c1ccncc1", "viability": "81.1%"}
